Measured values pooled from the literature.
Each numbered part is a random draw from the data of one study; scales do not carry over between parts. Changes are numbered by the printed parent chain.
Sequence of UniProt Q96SW2 (whole entry, looked up): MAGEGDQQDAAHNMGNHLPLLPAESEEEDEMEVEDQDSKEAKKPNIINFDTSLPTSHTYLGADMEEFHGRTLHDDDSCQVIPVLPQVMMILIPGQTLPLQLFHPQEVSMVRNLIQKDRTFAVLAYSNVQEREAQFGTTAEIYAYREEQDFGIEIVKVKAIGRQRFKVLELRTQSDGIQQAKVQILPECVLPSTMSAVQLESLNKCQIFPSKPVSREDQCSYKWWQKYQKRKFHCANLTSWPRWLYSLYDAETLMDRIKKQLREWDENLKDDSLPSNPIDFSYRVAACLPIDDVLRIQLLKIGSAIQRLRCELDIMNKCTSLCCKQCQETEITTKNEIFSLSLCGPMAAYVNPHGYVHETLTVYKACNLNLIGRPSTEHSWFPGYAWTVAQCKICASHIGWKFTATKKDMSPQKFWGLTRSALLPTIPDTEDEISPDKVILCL
Sequence of UniProt Q9UKS7 (whole entry, looked up): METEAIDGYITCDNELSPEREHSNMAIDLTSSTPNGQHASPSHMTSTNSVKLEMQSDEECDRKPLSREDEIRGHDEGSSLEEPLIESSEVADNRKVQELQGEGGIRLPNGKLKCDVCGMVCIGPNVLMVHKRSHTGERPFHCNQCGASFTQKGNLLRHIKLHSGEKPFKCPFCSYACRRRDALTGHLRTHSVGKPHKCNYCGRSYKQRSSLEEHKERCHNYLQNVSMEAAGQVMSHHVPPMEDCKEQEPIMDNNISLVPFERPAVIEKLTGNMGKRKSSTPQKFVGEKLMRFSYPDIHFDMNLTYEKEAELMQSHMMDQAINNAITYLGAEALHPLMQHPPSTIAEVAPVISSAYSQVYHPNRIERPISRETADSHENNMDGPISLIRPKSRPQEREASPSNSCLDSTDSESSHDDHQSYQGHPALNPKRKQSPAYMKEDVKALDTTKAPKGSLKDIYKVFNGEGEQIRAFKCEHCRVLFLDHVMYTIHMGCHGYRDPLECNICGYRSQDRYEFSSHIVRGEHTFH

Study 1
Target: Centromere-binding protein 1, full length, His-tagged (CBF1, Saccharomyces cerevisiae, UniProt P17106, residues 1-351)
Sequence of UniProt P17106 (whole entry, looked up): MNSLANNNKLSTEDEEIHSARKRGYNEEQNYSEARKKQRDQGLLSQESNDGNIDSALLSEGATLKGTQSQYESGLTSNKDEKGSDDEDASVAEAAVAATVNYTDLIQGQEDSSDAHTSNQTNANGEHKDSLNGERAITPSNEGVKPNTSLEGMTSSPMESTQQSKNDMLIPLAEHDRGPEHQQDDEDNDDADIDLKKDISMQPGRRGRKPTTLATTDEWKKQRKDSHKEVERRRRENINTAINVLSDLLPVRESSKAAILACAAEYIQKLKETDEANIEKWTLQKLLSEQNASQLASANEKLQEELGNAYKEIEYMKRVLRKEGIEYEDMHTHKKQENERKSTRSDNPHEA
Technique: competition protein-binding microarray
Form: double-stranded DNA, one strand shown
Matrix: in vitro
Concentration: 2 µM
Setting: whole 60-bp probe, lowest competitor level
With: Pho4 competitor, 0.05 µM
Direction: higher = stronger binding
Shared flanks, not repeated: … GTCTTGATTCGCTTGACGCTGCTG
Sequence	fluorescence intensity
AAAGCGGTAATTTGGCTGGTGGGTGCAGATATCTAT	78.9 a.u.
ATCCGGAGCCCTCCACGCCTGCTAGCTTTGTGTTGG	53.5 a.u.
CGGACGCCCACTCCTCACGGGAATAAGTTAGAATGT	93.4 a.u.
TAAAGGGACCGCTACCACATGGACAAGGAAATTTGC	73.3 a.u.
CATACCCAACCTTGGGAGGTGGGTGAAGATATTTGT	50.9 a.u.
AAAAGTGGGAGCTCATTCGTGATGGGGAAGCAGAGA	72 a.u.
CTAACGAAGGTTTGTACTGTGGGTGACAAGCCAAGT	72.5 a.u.
GACAGTCTTAGTGTAGACGTGACGGTTCTTGGTGGC	89.3 a.u.

Study 2
Target: CCNE2, cyclin fold, Cln2 fusion (human)
Technique: yeast growth competition, sequencing
Matrix: yeast
Setting: strong parent motif
Reference: not given
Direction: higher = stronger binding
Starting sequence: viral docking peptide; YKVKRRLVFGADD
Variant	normalised enrichment score
YAVKRRLVFGADD [K2A]	5.41
YKVKKRLVFGADD [R5K]	2.99
YKVKRRLVFGASD [D12S]	5.71
YKVKARLVFGADD [R5A]	0.351
YKVKDRLVFGADD [R5D]	-0.0793
YGVKRRLVFGADD [K2G]	6.25
YKVCRRLVFGADD [K4C]	4.88
YKVKRRLVFGARD [D12R]	4.24
YKVKRRLVAGADD [F9A]	0.132
YPVKRRLVFGADD [K2P]	5.56
YSVKRRLVFGADD [K2S]	5.77
YKVFRRLVFGADD [K4F]	1.12
YKVKRRLVFFADD [G10F]	3.75
YKVKRKLVFGADD [R6K]	5.24
YKMKRRLVFGADD [V3M]	0.682
YKVKRRLVFGNDD [A11N]	5.84
YKVKRRLMFGADD [V8M]	5.11
YKVKRRLVFNADD [G10N]	5.62
YKVKRRLVFGPDD [A11P]	6.25
YKNKRRLVFGADD [V3N]	0.46
YNVKRRLVFGADD [K2N]	6.11
YKVKRRLRFGADD [V8R]	3.97
YKWKRRLVFGADD [V3W]	2.21
YKVKRRLVFGATD [D12T]	5.82
YKVSRRLVFGADD [K4S]	3.24

Study 3
Target: Probable WRKY transcription factor 33, N-terminal DNA-binding domain (WRKY33, Arabidopsis thaliana, UniProt Q8S8P5, residues 169-264)
Sequence of UniProt Q8S8P5 (169-264, looked up): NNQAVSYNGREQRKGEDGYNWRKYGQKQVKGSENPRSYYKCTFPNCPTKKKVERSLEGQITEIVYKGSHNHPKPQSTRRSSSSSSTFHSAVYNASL
Technique: DNA-protein interaction ELISA
Form: double-stranded DNA, one strand shown
Matrix: in vitro, bacterial lysate
Concentration: not given
Setting: whole dsDNA probe, crude lysate protein
Reference: highest signal in screen
Direction: higher = stronger binding
Sequence	relative absorbance
AAAAAATTGTGCCTCTGCCCTCGCCTAAAA	21.7 % of maximum
AAAAAAGATCTAGGCCTTGGGACTCAAAAA	25.8 % of maximum
AAAAAAGTCTCACCTTTAGTCTTAATAAAA	61.3 % of maximum
AAAAAACCCGGTTGGAGAAAATAATTAAAA	20.5 % of maximum
AAAAAAGGTCTGGACGATCACCGGGAAAAA	21.5 % of maximum
AAAAAAAGTTGTACTTATTATACTTTAAAA	36.2 % of maximum
AAAAAACCACCCAGTCTGTTTCTACTAAAA	22.7 % of maximum
AAAAAATGTGCCCGTGTGTGCTCGCGAAAA	20 % of maximum

Study 4
Target: Hepatocyte nuclear factor 3-alpha (Foxa1, Mus musculus, UniProt P35582, residues 1-468, full length assumed)
Sequence of UniProt P35582 (whole entry, looked up): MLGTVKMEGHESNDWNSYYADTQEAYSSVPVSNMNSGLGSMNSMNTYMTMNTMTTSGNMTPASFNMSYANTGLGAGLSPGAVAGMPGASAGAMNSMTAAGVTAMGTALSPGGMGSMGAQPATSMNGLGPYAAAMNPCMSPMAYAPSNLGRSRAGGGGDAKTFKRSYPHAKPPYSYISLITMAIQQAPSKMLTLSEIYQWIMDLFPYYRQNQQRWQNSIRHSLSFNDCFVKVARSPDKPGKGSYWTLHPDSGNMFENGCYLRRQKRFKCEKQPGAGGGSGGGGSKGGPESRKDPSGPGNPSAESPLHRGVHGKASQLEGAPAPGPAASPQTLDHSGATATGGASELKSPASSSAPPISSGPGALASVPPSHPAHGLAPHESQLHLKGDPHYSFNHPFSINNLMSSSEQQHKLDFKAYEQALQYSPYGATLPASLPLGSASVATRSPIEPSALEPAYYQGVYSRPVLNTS
Technique: EMSA with sequencing
Form: double-stranded DNA, one strand shown
Matrix: in vitro
Concentration: 10 and 20 nM
Setting: whole designed probe, mean of two concentrations, ends assumed
Reference: negative control set to 0
Direction: higher = stronger binding
Shared flanks, not repeated: GTGAGCGGTGCCCATTGATGGGGAAC … TTTCACTGGGATCGTGGGGAC
Sequence	normalised bound fraction
ATATACTCTGGAGCCCCTCCAGTGAATTCTTCATATCGGTTGTACTTTCCAACTCCAGGATTTCCTTTTGGTTCTTTTTCATAATTTCTCTCTAGATTATCTTGAGGACTCTCTATTTGATGAGCCATTGTCATCATACTTTTCTTTATCTCTTTAAGTACAGTCATAGGCAGTTTTTATCACTTGCCTTTTT	0.0357 ratio
TTAACACTGTTCACTTGTATCAACATTTTACTACTTTGAGTAAAGTGTAAAAACCTATAGGTTCCTTTACCTCCTCCTTATAATTCTCTTAAATATTTACTCACATACTTTGAGAACCATATCACACAGTATTATAATTTTTGCTTTGACCATCAAATATAATTTAGAAAATCCAACAGGATAGTTTATATTT	0.186 ratio
GCTCTGGGCAGTCACCCAGGTACCACAAAATCCCTATGGGTGTGCATCTCCTTTGTTACCCATGTGTATACTCCCTCCCTGACGTCAAAGCCATGTTTGCTCAGCTTGATGAAAATGTGTTTCTTGAAAGCCACATTCTTTTCCTTTTCTGAGCCAGTGAGGTTTCTGCAGAGCTCATGGTGCTGATGTTTCC	0.165 ratio
TGCAAAGGGCAAGATAGTTTCTCTGCTGTTAGCTTCAAAGGTTGTAGGTAATAAATTAAAAACTATAAGCAAATTTAAAGAATTAAAAGAAAAGCAATTTACTCTTGAGACTGATTTAGGTAGGTAATTTATCACTTCTTTATATCTCTCCCAGGAGATTAACTAGAGAAACTGTGGATATTGTATCAATGAG	-0.0347 ratio
CACAGATTGCGGCCGTTTTTCAAATATTTGAGGAGTTCTTAGGTGTAGTTGTTCTATTCATTTCCTACTTATGTCCCTTTATTTTATTGCAAAATAATCTCAGCTTGGCACTTGACATTTTCCCTGACCCATCTTTTAAACATACATTAGATGTGAGTCATAGGCAATGAACGGAACTCGCATTTTTGCCCAC	0.0239 ratio
TCTTTCACTCAAGTGGTATATCCCACAGCCCTAAAGAAGCAAGGGAAATAAGAATTAGAACTAGACATCCCAGGAGACAAAGAATTCAACAAAGCAAACATTAACCAATCCCTTCACTATTTACCACTTCCTGCAGAAAATCTCTCTGGCTCAGGCCGGGCAGTGAGTTCATTTATTTCAACAAAATCAAAGA	0.328 ratio
TGCCCAGCCTCTTTTCTCCATACAAGTTATTTATTGAAGTATGAATGAATGATGATTGGTGTTTCAATGAGCACTCTTATGGGCCACTGCCTAAGTAATCTTCAAGAAGTCTCTGTACCAGATGCAGACTTAGTGGAACAAGTCCAGTTTTGAATGCATGAAGAAAGTGGTTTGGGAGAAGTAAAGTTTAGGC	-0.033 ratio
ATCTTCCCCCTCTTCCTTGCCCCACCAGCTCACCTTCCCGGGTATCTGCAAATAAGTATTTATTTTCAAGCCGGCATTCGTTAACCCTCTTCTGGCGCAAACTGCCAGAGCAAACAGATGAATCATGGTCCTTTGGCGACGCCAGGCTCCGGGAGAGCAAAGCACCGTGTCAGGGCCATGATCCGGGGTGGCC	0.246 ratio

Other studies, line by line
SMILES	target	assay	test system	setting	quantity	result
COc1cc(N[C@@H]2CCCC[C@]2(O)C(F)(F)F)ccc1F	Sodium-dependent serotonin transporter (SLC6A4, Homo sapiens, UniProt P31645)	ligand displacement		10 µM	inhibition	15.6%
O=C1CCC(N2Cc3c(ccc4c3OCC43CCN(Cc4ccccc4)C3)C2=O)C(=O)N1 (stereo not drawn)	CRBN/Zinc finger protein Helios (Homo sapiens, UniProt Q96SW2+Q9UKS7)	degrader, HiBiT	HEK293	13.72 nM	protein remaining	86.8%
